# Published values of several laboratories.
# Compare with care: the assays were run in different laboratories. Values joined by “and” are separate records of one study, mostly repeats; a detail may differ. ± marks the error that the study gave.
# HDAC11: Histone deacetylase 11 (HDAC11, Homo sapiens, UniProt Q96DB2)
# UniProt Q96DB2, sequence (whole entry, looked up): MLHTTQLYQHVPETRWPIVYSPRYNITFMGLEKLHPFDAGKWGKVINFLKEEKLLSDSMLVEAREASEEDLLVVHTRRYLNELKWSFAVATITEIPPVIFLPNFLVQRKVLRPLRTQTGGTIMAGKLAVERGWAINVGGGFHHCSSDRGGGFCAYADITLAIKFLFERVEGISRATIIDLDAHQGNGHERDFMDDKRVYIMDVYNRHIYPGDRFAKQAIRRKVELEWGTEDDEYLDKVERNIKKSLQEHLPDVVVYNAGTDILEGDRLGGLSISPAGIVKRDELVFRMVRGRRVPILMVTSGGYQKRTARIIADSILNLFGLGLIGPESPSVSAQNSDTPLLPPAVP
# CDK4: Cyclin-dependent kinase 4 (CDK4, Homo sapiens, UniProt P11802)
# UniProt P11802, sequence (whole entry, looked up): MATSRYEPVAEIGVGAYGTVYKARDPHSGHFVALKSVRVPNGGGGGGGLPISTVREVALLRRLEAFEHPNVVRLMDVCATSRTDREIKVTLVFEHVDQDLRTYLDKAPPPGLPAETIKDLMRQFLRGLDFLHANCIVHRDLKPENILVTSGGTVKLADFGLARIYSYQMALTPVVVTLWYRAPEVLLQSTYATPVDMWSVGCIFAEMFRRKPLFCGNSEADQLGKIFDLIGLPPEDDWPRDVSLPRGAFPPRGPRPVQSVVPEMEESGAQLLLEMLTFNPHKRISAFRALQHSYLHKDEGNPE
# VKORC1: Vitamin K epoxide reductase complex subunit 1 (VKORC1, Homo sapiens, UniProt Q9BQB6)
# UniProt Q9BQB6, sequence (whole entry, looked up): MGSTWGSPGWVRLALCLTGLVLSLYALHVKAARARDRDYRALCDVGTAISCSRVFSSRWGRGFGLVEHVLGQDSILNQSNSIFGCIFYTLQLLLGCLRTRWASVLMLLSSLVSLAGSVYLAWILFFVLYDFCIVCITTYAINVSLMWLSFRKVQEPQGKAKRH
# MTOR: Serine/threonine-protein kinase mTOR (MTOR, Homo sapiens, UniProt P42345)
# SIRT5: NAD-dependent protein deacylase sirtuin-5, mitochondrial (SIRT5, Homo sapiens, UniProt Q9NXA8)
# UniProt Q9NXA8, sequence (whole entry, looked up): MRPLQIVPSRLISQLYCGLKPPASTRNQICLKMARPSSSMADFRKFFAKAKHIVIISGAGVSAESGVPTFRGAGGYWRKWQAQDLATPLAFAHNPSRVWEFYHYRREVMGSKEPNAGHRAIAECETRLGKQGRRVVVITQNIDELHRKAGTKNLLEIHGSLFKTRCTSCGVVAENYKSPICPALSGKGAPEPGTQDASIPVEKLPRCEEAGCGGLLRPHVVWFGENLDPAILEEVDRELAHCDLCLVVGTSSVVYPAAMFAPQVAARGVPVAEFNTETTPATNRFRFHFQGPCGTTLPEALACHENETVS
# DDR2: Discoidin domain-containing receptor 2 (DDR2, Homo sapiens, UniProt Q16832)
# UniProt Q16832, sequence (whole entry, looked up): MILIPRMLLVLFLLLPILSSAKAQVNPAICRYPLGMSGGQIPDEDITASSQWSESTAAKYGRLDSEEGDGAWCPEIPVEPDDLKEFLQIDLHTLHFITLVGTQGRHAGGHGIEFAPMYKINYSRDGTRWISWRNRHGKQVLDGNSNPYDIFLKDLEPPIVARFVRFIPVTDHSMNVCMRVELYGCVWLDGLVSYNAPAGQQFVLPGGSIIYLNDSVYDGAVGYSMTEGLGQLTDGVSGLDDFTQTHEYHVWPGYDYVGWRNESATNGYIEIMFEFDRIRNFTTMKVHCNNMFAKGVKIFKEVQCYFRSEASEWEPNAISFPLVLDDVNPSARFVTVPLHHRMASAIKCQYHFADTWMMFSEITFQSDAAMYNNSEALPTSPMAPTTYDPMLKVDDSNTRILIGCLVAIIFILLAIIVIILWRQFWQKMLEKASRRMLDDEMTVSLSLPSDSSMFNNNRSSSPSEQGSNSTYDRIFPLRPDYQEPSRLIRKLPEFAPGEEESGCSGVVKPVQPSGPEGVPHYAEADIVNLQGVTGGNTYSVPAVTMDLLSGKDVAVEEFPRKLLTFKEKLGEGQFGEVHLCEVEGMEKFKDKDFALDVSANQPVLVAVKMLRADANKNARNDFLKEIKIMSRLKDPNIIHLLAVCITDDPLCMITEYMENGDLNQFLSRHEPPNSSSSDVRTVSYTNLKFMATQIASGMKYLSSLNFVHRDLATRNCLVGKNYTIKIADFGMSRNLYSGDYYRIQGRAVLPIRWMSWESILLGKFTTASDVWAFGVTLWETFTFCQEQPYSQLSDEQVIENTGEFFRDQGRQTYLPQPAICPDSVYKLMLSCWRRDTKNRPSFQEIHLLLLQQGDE
# MAOA: Amine oxidase [flavin-containing] A (MAOA, Homo sapiens, UniProt P21397)
# UniProt P21397, sequence (whole entry, looked up): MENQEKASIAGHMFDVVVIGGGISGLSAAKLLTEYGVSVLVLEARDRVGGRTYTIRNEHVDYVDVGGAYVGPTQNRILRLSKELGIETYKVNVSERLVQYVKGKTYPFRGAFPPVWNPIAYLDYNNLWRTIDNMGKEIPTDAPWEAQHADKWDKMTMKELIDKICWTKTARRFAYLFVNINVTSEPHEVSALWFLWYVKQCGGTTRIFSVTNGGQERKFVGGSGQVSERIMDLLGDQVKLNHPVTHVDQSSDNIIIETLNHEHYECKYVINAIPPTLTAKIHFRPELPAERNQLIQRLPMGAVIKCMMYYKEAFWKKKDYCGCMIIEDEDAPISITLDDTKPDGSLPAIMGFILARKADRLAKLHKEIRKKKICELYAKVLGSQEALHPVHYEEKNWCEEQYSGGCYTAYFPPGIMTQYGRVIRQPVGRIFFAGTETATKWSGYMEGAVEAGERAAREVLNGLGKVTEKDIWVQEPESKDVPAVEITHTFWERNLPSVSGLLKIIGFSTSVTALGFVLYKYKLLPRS
# MARS2: Methionine--tRNA ligase, mitochondrial (MARS2, Homo sapiens, UniProt Q96GW9)
# UniProt Q96GW9, sequence (whole entry, looked up): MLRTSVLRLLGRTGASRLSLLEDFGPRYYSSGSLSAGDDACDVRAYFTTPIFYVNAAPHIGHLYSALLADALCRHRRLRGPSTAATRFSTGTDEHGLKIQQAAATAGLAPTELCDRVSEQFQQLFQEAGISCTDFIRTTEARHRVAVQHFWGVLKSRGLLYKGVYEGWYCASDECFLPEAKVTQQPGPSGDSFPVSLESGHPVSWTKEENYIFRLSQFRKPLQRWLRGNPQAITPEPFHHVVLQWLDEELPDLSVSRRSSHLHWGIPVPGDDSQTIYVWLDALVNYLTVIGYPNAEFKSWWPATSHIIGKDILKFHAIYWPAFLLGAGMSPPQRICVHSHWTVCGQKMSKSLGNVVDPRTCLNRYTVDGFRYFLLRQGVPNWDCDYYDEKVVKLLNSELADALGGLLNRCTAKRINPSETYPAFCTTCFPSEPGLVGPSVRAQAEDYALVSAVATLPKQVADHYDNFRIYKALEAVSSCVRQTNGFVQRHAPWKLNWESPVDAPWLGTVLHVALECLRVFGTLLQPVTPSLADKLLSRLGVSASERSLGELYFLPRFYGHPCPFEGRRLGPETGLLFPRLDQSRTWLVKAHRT
# Gria2: Glutamate receptor 2 (Gria2, Rattus norvegicus, UniProt P19491)
# UniProt P19491, sequence (whole entry, looked up): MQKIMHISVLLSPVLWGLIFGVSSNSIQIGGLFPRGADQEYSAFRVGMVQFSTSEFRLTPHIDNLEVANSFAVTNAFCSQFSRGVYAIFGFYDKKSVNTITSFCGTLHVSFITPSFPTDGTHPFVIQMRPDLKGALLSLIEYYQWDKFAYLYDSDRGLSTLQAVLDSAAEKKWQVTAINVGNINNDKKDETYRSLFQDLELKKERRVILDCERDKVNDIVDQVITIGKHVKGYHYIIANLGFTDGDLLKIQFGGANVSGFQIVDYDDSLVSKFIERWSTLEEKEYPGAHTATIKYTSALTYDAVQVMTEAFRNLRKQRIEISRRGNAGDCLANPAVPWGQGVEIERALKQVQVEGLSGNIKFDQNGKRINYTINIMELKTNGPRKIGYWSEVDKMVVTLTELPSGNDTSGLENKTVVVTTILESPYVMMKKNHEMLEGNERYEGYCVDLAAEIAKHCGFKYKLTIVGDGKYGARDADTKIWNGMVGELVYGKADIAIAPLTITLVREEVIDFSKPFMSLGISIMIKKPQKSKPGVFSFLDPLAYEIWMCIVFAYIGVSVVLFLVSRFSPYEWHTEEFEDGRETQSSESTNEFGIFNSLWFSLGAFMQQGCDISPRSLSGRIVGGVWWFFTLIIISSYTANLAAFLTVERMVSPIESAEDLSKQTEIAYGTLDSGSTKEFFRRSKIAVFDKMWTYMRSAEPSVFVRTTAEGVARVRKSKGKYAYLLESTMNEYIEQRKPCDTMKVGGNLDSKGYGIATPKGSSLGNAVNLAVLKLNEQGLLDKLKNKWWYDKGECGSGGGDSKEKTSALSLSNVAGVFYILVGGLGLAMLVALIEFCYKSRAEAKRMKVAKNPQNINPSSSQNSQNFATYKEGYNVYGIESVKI
# UniProt Q9UIQ6, sequence (whole entry, looked up): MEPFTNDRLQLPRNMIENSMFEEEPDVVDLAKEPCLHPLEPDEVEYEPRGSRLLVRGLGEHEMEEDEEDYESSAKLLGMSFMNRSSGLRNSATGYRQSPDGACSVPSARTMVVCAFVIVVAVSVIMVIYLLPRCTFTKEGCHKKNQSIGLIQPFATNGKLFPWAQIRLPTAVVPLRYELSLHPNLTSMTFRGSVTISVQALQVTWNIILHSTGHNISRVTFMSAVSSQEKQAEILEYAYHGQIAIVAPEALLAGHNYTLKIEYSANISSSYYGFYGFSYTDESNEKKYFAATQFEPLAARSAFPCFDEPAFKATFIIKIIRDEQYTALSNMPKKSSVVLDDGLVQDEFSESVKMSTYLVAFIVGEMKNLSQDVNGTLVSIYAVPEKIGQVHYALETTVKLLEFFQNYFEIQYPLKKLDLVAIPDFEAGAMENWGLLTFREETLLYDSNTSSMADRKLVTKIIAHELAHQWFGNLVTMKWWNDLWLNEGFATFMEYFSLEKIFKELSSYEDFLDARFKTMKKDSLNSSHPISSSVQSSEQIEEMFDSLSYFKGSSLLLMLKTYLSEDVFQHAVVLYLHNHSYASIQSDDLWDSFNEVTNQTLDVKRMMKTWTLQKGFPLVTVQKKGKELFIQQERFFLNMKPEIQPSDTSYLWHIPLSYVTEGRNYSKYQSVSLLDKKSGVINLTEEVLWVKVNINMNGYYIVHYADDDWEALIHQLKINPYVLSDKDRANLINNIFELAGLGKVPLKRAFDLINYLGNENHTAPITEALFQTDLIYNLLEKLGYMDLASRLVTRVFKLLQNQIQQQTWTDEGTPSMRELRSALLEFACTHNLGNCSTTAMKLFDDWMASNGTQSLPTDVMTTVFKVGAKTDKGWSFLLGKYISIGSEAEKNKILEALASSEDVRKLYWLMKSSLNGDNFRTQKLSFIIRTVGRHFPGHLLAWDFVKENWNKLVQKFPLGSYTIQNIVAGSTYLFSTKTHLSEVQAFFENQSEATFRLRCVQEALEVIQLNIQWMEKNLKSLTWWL
SMILES,target,test,system,conditions,scale,IC50
O=C(CCc1ccc(CNC(C(=O)OC2CCCC2)C2CCCCC2)cn1)NO (stereo not drawn),HDAC11,"enzyme activity, inhibitor",,,,977 nM
Cc1nc2c(F)cc(-c3nc(Nc4ccc(NC(=O)CCCC(=O)NO)cc4)ncc3F)cc2n1C(C)C,CDK4,,,,,1.6 nM
CC(C)(COP(=O)(O)OP(=O)(O)OC[C@H]1O[C@@H](n2cnc3c(N)ncnc32)[C@H](O)[C@@H]1OP(=O)(O)O)[C@@H](O)C(=O)NCCC(=O)NCCSCCC(=O)N[C@@H](CO)C(=O)NCC(=O)N[C@@H](CCCNC(=N)N)C(=O)NCC(=O)N[C@@H](CCCCN)C(N)=O,"N-alpha-acetyltransferase 40 (NAA40, Homo sapiens, UniProt Q86UY6)","enzyme activity, inhibitor, fluorescence",,,,92 nM
C[C@H](Cn1nnc2ccccc21)NC(=O)c1cnn2cccnc12,VKORC1,"carboxylation, inhibitor, ELISA",HEK293 stably expressing,"24 h, added: vitamin K epoxide 5 µM",,> 100000 nM
CCOc1cc(CN2CCC3(CC2)CN(c2ccc(C(=O)O)cc2)C(=O)N3)c(C2CC2)cc1C,"Somatostatin receptor type 5 (SSTR5, Homo sapiens, UniProt P35346, N100V)","cAMP level, agonist, GloSensor",AD293,"N100V mutant, added: CST17 EC80 and forskolin",,24 nM
CCN(CC)CC(=O)Nc1cccc(-n2cc(-c3ccc4ccc(-c5cn(-c6cccc(NC(=O)CN(CC)CC)c6)nn5)cc4c3)nn2)c1,MTOR,"enzyme activity, inhibitor",,,,> 10000 nM
O=C(NC1CCC1)[C@H](Cc1c[nH]c2ccccc12)NC(=O)[C@H](CCCCNC(=S)NCCc1cc(O)n[nH]1)NS(=O)(=O)c1cccc(F)c1,SIRT5,"enzyme activity, inhibitor",,,,32000 ± 1000 nM
N=C(N)NCCC[C@H](NC(=O)[C@H](CCCCNC(=S)NCCC(=O)O)NS(=O)(=O)c1cccc(F)c1)C(=O)NC1CCC1,SIRT5,"inhibitor, fluorogenic",,"pre-incubation 16 h, added: NAD+ 500 µM",,86 ± 4 nM
O=C(O)c1cc(C(=O)CC(=O)c2cc(C(=O)O)c(O)c3ccccc23)c2ccccc2c1O,"Three-prime repair exonuclease 1 (Trex1, Mus musculus, UniProt Q91XB0)","exonuclease activity, inhibitor",,added: dsDNA substrate,,26100 ± 2590 nM
Cc1nn(-c2cccc(N)c2)c(=O)c2cnc(Nc3ccc(N4CCNCC4)cc3)nc12,"Death-associated protein kinase 1 (DAPK1, Homo sapiens, UniProt P53355)","enzyme activity, inhibitor",,,,2810 nM
CCn1nc(Cl)c2c1-c1cnc(N)c(c1)O[C@H](C)c1cc(F)ccc1-c1nn(C)cc1C2,"Ephrin type-A receptor 4 (EPHA4, Homo sapiens, UniProt P54764)","enzyme activity, inhibitor, radiometric",,,,510 nM
O=C(Cc1ccc(OCc2ccccc2)cc1)NC1(C(=O)O)CCN(C(=O)c2ccc(-c3cccc(Cl)c3)cc2)CC1,"Adenosine receptor A3 (ADORA3, Homo sapiens, UniProt P0DMS8)","antagonist, GloSensor cAMP",,,,> 10000 nM
CC1CC(C)CN(C(=O)Cn2ncc3cccn3c2=O)C1 (stereo not drawn),VKORC1,"carboxylation, inhibitor, cell-based",,,,5500 nM
COc1ccc2c(c1)CN(C(=O)CCN1CCC(Cc3ccccc3)CC1)CCS2,"Inward rectifier potassium channel 2 (KCNJ2, Homo sapiens, UniProt P63252)","IK1 current, inhibitor, whole-cell patch clamp",stable cell line,,,> 100000 nM
Nc1n[nH]c2ccc(C(=O)N3CCC4(CC3)C(=O)N(CC(=O)NCC(F)(F)F)CN4c3ccccc3)cc12,DDR2,ligand displacement,,,,1670 nM
COc1ccc(-c2cc(OCC(=O)N(C)Cc3cccnc3C)nc(-n3nc(C)cc3C)n2)cc1,"Leucyl-cystinyl aminopeptidase (LNPEP, Homo sapiens, UniProt Q9UIQ6)","inhibitor, HPLC",,first phase of biphasic curve,partial inhibition,100 nM
Cc1nc2c(F)cc(-c3nc(Nc4ccc(CC(=O)NCCCC(=O)NO)cc4)ncc3F)cc2n1C(C)C,CDK4,,,,,1.2 nM
CC(C)c1ccc(/C=C/C(=O)c2ccc(F)cc2)cc1,MAOA,"enzyme activity, inhibitor",,,,12400 nM
O=C(CN1CN(c2ccccc2F)C2(CCN(C(=O)c3cnc4[nH]ncc4c3)CC2)C1=O)NCC(F)(F)F,DDR2,ligand displacement,,,,132000 nM
O=C(O)CCNC(=S)NCCCC[C@H](NS(=O)(=O)c1cccc(F)c1)C(=O)N[C@@H](Cc1c[nH]c2ccccc12)C(=O)NC1CCC1,SIRT5,"inhibitor, fluorogenic",,"pre-incubation 4 h, added: NAD+ 500 µM",,74 nM and 72 nM
C[C@@H](CNCc1cc(Cl)cc(Cl)c1)CNc1nc2cccnc2[nH]1,MARS2,"enzyme activity, inhibitor",,,,20 nM
C=CC[C@@H]1NC(=O)[C@H](CCSC)NC(=O)CCSCc2cccc(n2)CSCCNC(=O)[C@H](CCCCCC(=O)N(O)CCCCCC)NC1=O,HDAC11,"enzyme activity, inhibitor, fluorescence",,,,660 nM
O=C(CN1CN(c2cccc(F)c2)C2(CCN(C(=O)c3cnc4[nH]ncc4c3)CC2)C1=O)NCC(F)(F)F,DDR2,ligand displacement,,,,3250 nM
Cc1nc2c(F)cc(-c3nc(Nc4ccc(CC(=O)NCCCCCCC(=O)NO)cc4)ncc3F)cc2n1C(C)C,CDK4,,,,,1.3 nM
CN1CCc2cc(Br)c(O)cc2C(c2ccc(NC(=O)CCOCCOCCOCCn3cc(COCCOCCOCCOCCC(=O)NCCc4c[nH]cn4)nn3)cc2)C1 (stereo not drawn),"D(1A) dopamine receptor (DRD1, Homo sapiens, UniProt P21728)",cell-based,,,,123 nM
Cc1c(OS(=O)(=O)Oc2ccc3ccccc3c2)cccc1C(=O)NO,HDAC11,,,,,827 nM
COC(=O)CCCNC(=O)Cc1ccc(Nc2ncc(F)c(-c3cc(F)c4nc(C)n(C(C)C)c4c3)n2)cc1,CDK4,,,,,1.6 nM
O=C(O)Cc1cc2c(cc1C(=O)c1ccccc1)OCO2,Gria2,"glutamate-evoked current, inhibitor, whole-cell patch clamp","HEK293T, homomeric receptor",,,5370 nM
O=C(CN1CN(c2ccccc2)C2(CCN(C(=O)c3ccc4[nH]ncc4c3)CC2)C1=O)N1CCOC(C(F)(F)F)C1 (stereo not drawn),DDR2,ligand displacement,,,,679 nM
CCCCCCCCC(=O)Nc1ccc(Nc2ncc(F)c(-c3cc(F)c4nc(C)n(C(C)C)c4c3)n2)cc1,CDK4,,,,,22 nM
O=C1c2cc(O)cc(O)c2C(=O)c2c(O)cc(CO)cc21,MAOA,"enzyme activity, inhibitor",,,,40600 nM
FC(F)(CNCc1cc(Cl)cc(Cl)c1)CNc1nc2cccnc2[nH]1,MARS2,"enzyme activity, inhibitor",,,,269 nM
O=C(O)Cc1cc2c(cc1C(=O)c1ccc(Cl)cc1Cl)OCO2,Gria2,"glutamate-evoked current, inhibitor, whole-cell patch clamp","HEK293T, homomeric receptor",,,3720 nM
COC(=O)CCCCCCC(=O)Nc1cccc(Nc2ncc(F)c(-c3cc(F)c4nc(C)n(C(C)C)c4c3)n2)c1,CDK4,,,,,4.9 nM
Cn1c(C(=O)Nc2nc(-c3ccccc3F)cs2)cc(=O)n(C)c1=O,VKORC1,"carboxylation, inhibitor, ELISA",HEK293 stably expressing,"24 h, added: vitamin K epoxide 5 µM",,> 100000 nM
CC[C@H](C)[C@@H]1NC(=O)[C@H](Cc2ccccc2C(F)(F)F)NC(=O)CCSCc2cccc(n2)CSCCCNC(=O)[C@H](CCCCCC(=O)NO)NC1=O,HDAC11,"enzyme activity, inhibitor, fluorescence",,,,2300 nM
O=C(NCC(F)c1ccc(Cl)cc1Cl)c1cc(Cl)nnc1Oc1cccc(C2CC2)c1 (stereo not drawn),"serine palmitoyltransferase (Botrytis cinerea, UniProt A0A384JAG3+A0A384JQT2)",,,,,14 ± 3 nM
NC(=O)c1cccc(NC(=O)c2cc(-c3ccccc3)n(-c3ccc(Br)cc3)n2)c1,"Genome polyprotein, NS2B-NS3 protease (dengue virus type 2, UniProt P29990)",enzyme activity,,added: AMC substrate 50 µM,,14000 nM
COC(=O)CCCNC(=O)c1ccc(Nc2ncc(F)c(-c3cc(F)c4nc(C)n(C(C)C)c4c3)n2)cc1,CDK4,,,,,12 nM
Cc1cc(NC2CCN(C)CC2)ccc1-c1cc2c(N3CCC[C@H](C(=O)NCc4ccc(OC(F)(F)F)cc4)C3)ncnc2[nH]1,MTOR,"enzyme activity, inhibitor, TR-FRET",,,,> 8000 nM
O=C1C(Cl)=C(NCCN2CCOCC2)C(=O)c2ncccc21,"Protein arginine N-methyltransferase 1 (PRMT1, Homo sapiens, UniProt Q99873)","enzyme activity, inhibitor",,,,> 100000 nM
CC(C)c1ccc(/C=C/C(=O)c2nc3ccccc3[nH]2)cc1,MAOA,"enzyme activity, inhibitor",,,,12400 nM
CC(C)C[C@H](NC(=O)[C@@H](CCCCNC(=O)[C@@H](Cc1ccccc1)NC(=O)CCCCCCCCCCNC(=O)CN1CCN(CC(=O)O)CCN(CC(=O)O)CCN(CC(=O)O)CC1)NC(=O)[C@H](Cc1ccc(O)cc1)NC(=O)[C@H](CO)NC(=O)[C@H](Cc1c[nH]c2ccccc12)NC(=O)[C@H](Cc1c[nH]cn1)NC(=O)[C@@H]1CCC(=O)N1)C(=O)N[C@@H](CCCNC(=N)N)C(=O)N1CCC[C@H]1C(=O)NCC(N)=O,"Gonadotropin-releasing hormone receptor (GNRHR, Homo sapiens, UniProt P30968)","ligand displacement, radioligand",,"pH 7.4, cell membranes",,24.6 nM
COc1ccc(Nc2cc(NC3CC3)n3ncc(C#N)c3n2)cc1,"Tyrosine-protein kinase Blk (BLK, Homo sapiens, UniProt P51451)",inhibitor,,,,> 10000 nM
COC(=O)Cc1cc2c(cc1C(=O)c1ccccc1Br)OCO2,Gria2,"glutamate-evoked current, inhibitor, whole-cell patch clamp","HEK293T, homomeric receptor",,,5250 nM

# Excerpt of the above:
SMILES,target,test,system,conditions,scale,IC50
CCN(CC)CC(=O)Nc1cccc(-n2cc(-c3ccc4ccc(-c5cn(-c6cccc(NC(=O)CN(CC)CC)c6)nn5)cc4c3)nn2)c1,MTOR,"enzyme activity, inhibitor",,,,> 10000 nM
O=C(NC1CCC1)[C@H](Cc1c[nH]c2ccccc12)NC(=O)[C@H](CCCCNC(=S)NCCc1cc(O)n[nH]1)NS(=O)(=O)c1cccc(F)c1,SIRT5,"enzyme activity, inhibitor",,,,32000 ± 1000 nM
N=C(N)NCCC[C@H](NC(=O)[C@H](CCCCNC(=S)NCCC(=O)O)NS(=O)(=O)c1cccc(F)c1)C(=O)NC1CCC1,SIRT5,"inhibitor, fluorogenic",,"pre-incubation 16 h, added: NAD+ 500 µM",,86 ± 4 nM
O=C(O)c1cc(C(=O)CC(=O)c2cc(C(=O)O)c(O)c3ccccc23)c2ccccc2c1O,"Three-prime repair exonuclease 1 (Trex1, Mus musculus, UniProt Q91XB0)","exonuclease activity, inhibitor",,added: dsDNA substrate,,26100 ± 2590 nM
Cc1nn(-c2cccc(N)c2)c(=O)c2cnc(Nc3ccc(N4CCNCC4)cc3)nc12,"Death-associated protein kinase 1 (DAPK1, Homo sapiens, UniProt P53355)","enzyme activity, inhibitor",,,,2810 nM
CCn1nc(Cl)c2c1-c1cnc(N)c(c1)O[C@H](C)c1cc(F)ccc1-c1nn(C)cc1C2,"Ephrin type-A receptor 4 (EPHA4, Homo sapiens, UniProt P54764)","enzyme activity, inhibitor, radiometric",,,,510 nM
O=C(Cc1ccc(OCc2ccccc2)cc1)NC1(C(=O)O)CCN(C(=O)c2ccc(-c3cccc(Cl)c3)cc2)CC1,"Adenosine receptor A3 (ADORA3, Homo sapiens, UniProt P0DMS8)","antagonist, GloSensor cAMP",,,,> 10000 nM
